Assay results of several laboratories.
Each line is one published result; not all experiments were run side by side.
Matrix: plasma

SMILES | system | conditions | AUC(0-inf)
CN1CCC[C@]1(C)/C=C/S(=O)(=O)NC(=O)Nc1c2c(cc3c1CCC3O)CCC2 (stereo partly drawn) | human | oral, 50 mg twice daily of parent drug, day 14, metabolite of dosed drug | 964 µg·h/mL
CC1(C)CC[C@]2(NC(=O)C(C)(F)F)CC[C@]3(C)[C@H](C(=O)C=C4[C@@]5(C)C=C(C#N)C(=O)C(C)(C)[C@@H]5CC[C@]43C)[C@@H]2C1 | human | oral, dose not given, geometric least-squares mean, with: gemfibrozil | 1.32 µg·h/mL
Cc1cc(F)ccc1-c1cc(N2C[C@H]3COC(O)CN3C[C@H]2CO)ncc1N(C)C(=O)C(C)(C)c1cc(C(F)(F)F)cc(C(F)(F)F)c1 (stereo partly drawn) | human | oral, 120 mg, geometric mean | 2.45 µg·h/mL
CN1CCC[C@]1(C)/C=C/S(=O)(=O)NC(=O)Nc1c2c(cc3c1C(O)CC3)CCC2 (stereo partly drawn) | human | oral, 12.5 mg twice daily of parent drug, day 14, metabolite of dosed drug | 97.3 µg·h/mL
CCCCCCCCCCCCCCCC(=O)N[C@@H](CCCCN)C(=O)N[C@@H](CCCCN)C(=O)N[C@@H](CO)C(=O)N[C@@H](CCCNC(=N)N)C(=O)N[C@@H](C)C(=O)N[C@@H](CC(C)C)C(=O)N[C@@H](Cc1ccccc1)C(N)=O | human patients | intravenous, 0.3 mg/kg over 2 h | 3.53 µg·h/mL
CC(C)C[C@H](NC(=O)[C@H](CCCN)NC(=O)CNC(=O)[C@@H](NC(=O)[C@H](C)NC(=O)[C@@H]1CSCSC[C@H](NC(=O)CC[C@H](N)C(=O)O)C(=O)N[C@@H](CC(N)=O)C(=O)N[C@@H]([C@@H](C)O)C(=O)N[C@@H](C)C(=O)N[C@@H]([C@@H](C)O)C(=O)N1)[C@@H](C)O)C(=O)N[C@@H](C)C(=O)N[C@@H](CCC(=O)O)C(=O)N[C@@](C)(Cc1ccccc1)C(=O)N[C@@H](CC(C)C)C(=O)N[C@H](C(=O)N[C@@H](CCCNC(=N)N)C(=O)N[C@@H](CO)C(=O)N[C@@H](CO)C(=O)N[C@@H](CC(N)=O)C(=O)N(C)[C@@H](CC(N)=O)C(=O)N[C@@H](Cc1ccccc1)C(=O)NCC(=O)N1CCC[C@H]1C(=O)N[C@@H](CCCCNC(=O)CC[C@H](NC(=O)CC[C@H](NC(=O)CCCCCCCCCCCCCCCCCCC(=O)O)C(=O)O)C(=O)O)C(=O)N[C@@H](CC(C)C)C(=O)N1CCC[C@H]1C(=O)N1CCC[C@H]1C(=O)N[C@H](C(=O)N[C@@H](CCC(=O)O)C(=O)N[C@H](C(=O)NCC(=O)N[C@@H](CO)C(=O)N[C@@H](CC(N)=O)C(=O)N[C@H](C(=O)N[C@@H](Cc1ccc(O)cc1)C(N)=O)[C@@H](C)O)C(C)C)[C@@H](C)O)C(C)C | healthy human | subcutaneous, 12 mg | 648 µg·h/mL
N#Cc1cc(NC(=O)C2c3ccccc3C(=O)N(CC(F)(F)F)C2c2ccc[n+]([O-])c2)ccc1F (stereo not drawn) | human | 600 mg, fasted, median | 41.7 µg·h/mL
CN1CCC[C@]1(C)/C=C/S(=O)(=O)NC(=O)Nc1c2c(cc3c1CCC3)CC=C2 | human | oral, 100 mg twice daily of parent drug, day 14, metabolite of dosed drug | 1260 µg·h/mL
CN(C(=O)C(C)(C)c1cc(C(F)(F)F)cc(C(F)(F)F)c1)c1cnc(N2C[C@H]3COCCN3C[C@H]2CO)cc1-c1ccc(F)cc1CO | human | oral, 120 mg, geometric mean | 1.32 µg·h/mL

A few entries again:
SMILES | system | conditions | AUC(0-inf)
CN1CCC[C@]1(C)/C=C/S(=O)(=O)NC(=O)Nc1c2c(cc3c1CCC3O)CCC2 (stereo partly drawn) | human | oral, 50 mg twice daily of parent drug, day 14, metabolite of dosed drug | 964 µg·h/mL
